Experimental data collected from several papers.
Protocols differ between the studies behind these lines. “And” joins repeats or separate records; there may be more than shown. ± marks the error that the study gave.

CCCOc1ccn2c(C(C)=O)cc(-c3ccccc3S(C)(=O)=O)c2c1 — viability (HBL-1; 0.5 µM, 120 h): 113%
Nc1cccc2c1C(=O)N(C1CCC(=O)NC1=O)C2=O (stereo not drawn) — viability (MM1.S; XTT; 1.5 µM; baseline: untreated): 17%
CC(=O)c1nn(-c2ccc(Cl)cc2)/c(=N/N=C(\C)c2ccc(NC(=O)c3ccc(C)cc3)cc2)s1 — viability (MCF7; 0.625 µM): 26.5%
Nc1cccc2c1CN(C1CCC(=O)NC1=O)C2=O (stereo not drawn) — viability (bone marrow CD138+ myeloma cells; XTT; 1.8 µM, mean of three patients): 8%
COc1ccc(-n2nc(C(C)=O)s/c2=N\N=C(/C)c2ccc(NC(=O)c3ccc(Cl)cc3)cc2)cc1 — viability (MCF7; 0.625 µM): 11.8%
COc1cc2ncnc(Nc3ccc(Oc4ccccc4)c(C)c3C)c2cc1OC — viability (NCI-H2087 (BRAF L597V); resazurin; 0.1 µM, 72 h, added: trametinib; baseline: DMSO): 101%
NC(=O)[C@H](CCCN=C(N)CCl)NC(=O)c1ccccc1 — viability (HBL-1; 1 µM, 120 h): 110%
Nc1ncnc2c1ncn2[C@@H]1O[C@H](CO)[C@@H](O)[C@H]1O — viability (activated human T cells; 100 µM, 72 h; higher = more viable cells): 58.4 a.u. and 58.6 a.u. and 44.2 a.u.
Cc1cccc(-c2[nH]c(CNc3ccccc3F)nc2-c2ccc3ncnn3c2)n1 — viability (MM1.S pomalidomide-resistant; XTT; 1.5 µM): 52% and 37% and 46%
Oc1ccc(/C=C/c2cc(O)cc(O)c2)cc1 — viability (HBL-1; 1 µM, 120 h): 94.5%
O=P(O)(O)C(O)(Cn1ccnc1)P(=O)(O)O — viability (MDA-MB-231; AlamarBlue; 7.5 µM, 24 h; baseline: control): 97 ± 4%
CC(NC(=O)c1ccccc1/N=C/c1c(O)ccc2ccccc12)c1ccccc1 (stereo not drawn) — viability (HBL-1; 0.5 µM, 120 h): 122%
COc1cc2ncnc(Nc3ccc(Oc4ccccc4)cc3C)c2cc1OC — viability (NCI-H2087 (BRAF L597V); resazurin; 0.3 µM, 72 h, added: trametinib 0 nM): 85.5%
O=C(O)c1ccc(O)c2ncccc12 — viability (HBL-1; 1 µM, 120 h): 103%
COc1ccc(-n2nc(C(C)=O)s/c2=N\N=C(/C)c2ccc(NC(=O)c3ccc(C)cc3)cc2)cc1 — viability (HepG2; 0.312 µM): 21.2%
